Assay results pooled from the literature.
Lines come from different studies, so protocols differ. Numbers after ± are the reported error.
CNR1: Cannabinoid receptor 1 (CNR1, Homo sapiens, UniProt P21554)
UniProt P21554, sequence (whole entry, looked up): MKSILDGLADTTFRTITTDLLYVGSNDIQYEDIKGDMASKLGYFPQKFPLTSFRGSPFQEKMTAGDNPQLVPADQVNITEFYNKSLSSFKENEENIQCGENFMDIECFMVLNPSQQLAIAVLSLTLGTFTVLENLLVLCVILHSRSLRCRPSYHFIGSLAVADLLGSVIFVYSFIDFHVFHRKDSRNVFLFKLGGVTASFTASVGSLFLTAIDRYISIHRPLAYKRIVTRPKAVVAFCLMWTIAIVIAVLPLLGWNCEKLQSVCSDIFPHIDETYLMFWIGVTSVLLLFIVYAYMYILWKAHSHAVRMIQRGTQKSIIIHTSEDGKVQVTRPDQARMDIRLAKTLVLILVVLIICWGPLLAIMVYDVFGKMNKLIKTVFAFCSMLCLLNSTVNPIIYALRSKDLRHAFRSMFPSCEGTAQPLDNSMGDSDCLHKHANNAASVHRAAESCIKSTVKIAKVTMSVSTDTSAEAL
Gabrg2/Gabra3 with β3 subunit: Gabrg2/Gabra3, with β3 subunit (Rattus norvegicus, UniProt P18508+P20236)
UniProt P18508, sequence (whole entry, looked up): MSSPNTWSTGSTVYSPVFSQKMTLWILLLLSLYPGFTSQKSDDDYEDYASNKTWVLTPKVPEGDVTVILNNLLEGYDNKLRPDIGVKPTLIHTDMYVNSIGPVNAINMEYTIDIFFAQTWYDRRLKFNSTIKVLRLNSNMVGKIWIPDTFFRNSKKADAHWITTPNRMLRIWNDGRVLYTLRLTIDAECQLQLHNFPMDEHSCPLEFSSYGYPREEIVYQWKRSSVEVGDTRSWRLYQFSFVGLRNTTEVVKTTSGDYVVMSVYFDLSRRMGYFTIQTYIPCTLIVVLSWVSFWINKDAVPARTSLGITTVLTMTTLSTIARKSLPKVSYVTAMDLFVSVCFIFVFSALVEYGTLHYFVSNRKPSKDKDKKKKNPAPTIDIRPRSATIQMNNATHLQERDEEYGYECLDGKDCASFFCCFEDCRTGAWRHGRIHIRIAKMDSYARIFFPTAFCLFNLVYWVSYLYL
UniProt P20236, sequence (whole entry, looked up): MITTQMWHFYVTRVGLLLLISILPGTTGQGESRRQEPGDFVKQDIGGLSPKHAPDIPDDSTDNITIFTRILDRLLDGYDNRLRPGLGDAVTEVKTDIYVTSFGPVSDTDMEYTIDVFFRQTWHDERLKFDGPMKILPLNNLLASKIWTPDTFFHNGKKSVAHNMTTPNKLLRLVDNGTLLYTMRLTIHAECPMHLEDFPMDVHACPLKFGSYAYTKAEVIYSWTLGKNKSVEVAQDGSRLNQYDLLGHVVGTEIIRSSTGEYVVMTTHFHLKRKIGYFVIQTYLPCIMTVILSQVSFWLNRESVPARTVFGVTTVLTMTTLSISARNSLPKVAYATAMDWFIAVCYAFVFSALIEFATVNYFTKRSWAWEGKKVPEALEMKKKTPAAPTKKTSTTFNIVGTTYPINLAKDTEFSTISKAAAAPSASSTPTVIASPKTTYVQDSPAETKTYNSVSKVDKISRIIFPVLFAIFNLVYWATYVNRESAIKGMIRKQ
UniProt P62813, sequence (whole entry, looked up): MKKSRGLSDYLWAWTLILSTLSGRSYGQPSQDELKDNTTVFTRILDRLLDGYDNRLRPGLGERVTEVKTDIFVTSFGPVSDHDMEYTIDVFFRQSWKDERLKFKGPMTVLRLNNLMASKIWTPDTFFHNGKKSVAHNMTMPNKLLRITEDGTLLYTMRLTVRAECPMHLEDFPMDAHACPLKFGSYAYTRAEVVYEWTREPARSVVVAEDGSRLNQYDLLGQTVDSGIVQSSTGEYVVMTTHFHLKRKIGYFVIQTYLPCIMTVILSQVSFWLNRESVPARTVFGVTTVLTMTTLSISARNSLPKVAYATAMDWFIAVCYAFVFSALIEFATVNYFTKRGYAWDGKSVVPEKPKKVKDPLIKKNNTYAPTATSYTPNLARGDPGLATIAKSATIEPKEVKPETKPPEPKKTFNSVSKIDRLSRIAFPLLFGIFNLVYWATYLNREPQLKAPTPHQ
UniProt Q923Y9, sequence (whole entry, unmodified, looked up): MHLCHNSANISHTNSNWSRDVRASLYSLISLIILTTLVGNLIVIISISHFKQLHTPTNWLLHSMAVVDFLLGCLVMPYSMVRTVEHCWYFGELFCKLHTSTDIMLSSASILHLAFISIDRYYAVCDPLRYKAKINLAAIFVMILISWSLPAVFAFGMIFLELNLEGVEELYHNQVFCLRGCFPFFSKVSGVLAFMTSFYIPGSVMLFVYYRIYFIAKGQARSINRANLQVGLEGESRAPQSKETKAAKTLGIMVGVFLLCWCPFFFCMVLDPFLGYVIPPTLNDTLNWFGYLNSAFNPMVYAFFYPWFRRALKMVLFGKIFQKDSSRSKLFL
UniProt P28223, sequence (whole entry, looked up): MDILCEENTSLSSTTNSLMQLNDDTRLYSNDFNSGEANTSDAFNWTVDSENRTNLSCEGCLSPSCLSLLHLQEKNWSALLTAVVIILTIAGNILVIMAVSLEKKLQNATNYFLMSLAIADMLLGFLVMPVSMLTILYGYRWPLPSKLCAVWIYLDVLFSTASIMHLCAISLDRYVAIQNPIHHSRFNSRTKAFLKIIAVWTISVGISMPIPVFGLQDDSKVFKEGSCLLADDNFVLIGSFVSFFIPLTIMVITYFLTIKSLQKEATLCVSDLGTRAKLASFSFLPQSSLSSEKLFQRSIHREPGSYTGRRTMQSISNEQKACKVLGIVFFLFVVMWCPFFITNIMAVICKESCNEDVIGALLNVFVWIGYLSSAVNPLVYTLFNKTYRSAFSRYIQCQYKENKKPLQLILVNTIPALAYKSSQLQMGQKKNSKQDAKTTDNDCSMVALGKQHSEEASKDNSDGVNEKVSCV

Structure (SMILES)	target	test	test system	setting	scale	Emax
CN1CCCCC1Cn1cc(C(=O)c2cccc3ccccc23)c2ccccc21 (stereo not drawn)	CNR1	GIRK channel response, agonist	AtT20 expressing CB1	–	baseline: WIN 55212-2 10 µM	78.3 ± 2.7%
CN1CCN(C(=O)OC2c3nccnc3C(=O)N2c2ccc(Cl)cn2)CC1 (stereo not drawn)	Gabrg2/Gabra1, with β3 subunit (Rattus norvegicus, UniProt P18508+P62813)	GABA-induced chloride current, two-electrode voltage clamp	Xenopus oocytes	with: GABA at EC3	–	383 ± 36%
CN1C(=O)CC(=O)N(c2ccccc2)c2cc(Cl)ccc21	Gabrg2/Gabra3 with β3 subunit	positive allosteric modulator, whole-cell patch clamp	HEK293	α3β3γ2 subunits, with: GABA at EC10	–	317 ± 30%
CC(C)(NC(=O)c1nn(Cc2ccc(F)cc2)c2ccccc12)C(=O)N1CCC[C@H]1C(N)=O	CNR1	calcium mobilization, agonist	CHO-K1 expressing Gαq16	–	baseline: CP55,940 maximum	92 ± 3%
C=CCCCn1nc(C(=O)N[C@H](C(=O)OC)C(C)(C)C)c2ccccc21	CNR1	GIRK channel response, agonist	AtT20 expressing CB1	–	baseline: WIN 55212-2 10 µM	101 ± 5.2%
O=C(NCC1CCCCC1)c1nn(Cc2ccc(F)cc2)c2ccccc12	CNR1	calcium mobilization, agonist	CHO-K1 expressing Gαq16	–	baseline: CP55,940 maximum	111 ± 2%
CN1C(=O)CN=C(c2ccccc2)c2cc(Cl)ccc21	Gabrg2/Gabra3 with β3 subunit	GABA-induced chloride current, two-electrode voltage clamp	Xenopus oocytes	with: GABA at EC3	–	738 ± 36%
COC(=O)[C@@H](NC(=O)c1nn(CCCCF)c2ccccc12)C(C)(C)C	CNR1	GIRK channel response, agonist	AtT20 expressing CB1	–	baseline: WIN 55212-2 10 µM	115 ± 2.9%
CC1=CC[C@@H]2[C@@H](C1)c1c(O)cc(CC#CCCCNS(C)(=O)=O)cc1OC2(C)C	CNR1	forskolin-stimulated cAMP, agonist	CHO expressing human CB1	with: forskolin 10 µM	–	37.4%
CN1CCCCC1Cn1cc(C(=O)C23CC4CC(CC(C4)C2)C3)c2ccccc21 (stereo not drawn)	CNR1	GIRK channel response, agonist	AtT20 expressing CB1	–	baseline: WIN 55212-2 10 µM	63.5 ± 3.9%
C[C@H]1CNCCc2ccc(Cl)cc21	HTR2A (Homo sapiens, UniProt P28223)	calcium signal, agonist, fluorescence	HEK293	–	–	67%
CNC(=O)[C@@H](NC(=O)c1nn(Cc2ccc(F)cc2)c2ccccc12)C(C)C	CNR1	calcium mobilization, agonist	CHO-K1 expressing Gαq16	–	baseline: CP55,940 maximum	120 ± 1%
CCCCCn1cc(C(=O)C2C(C)(C)C2(C)C)c2ccccc21	CNR1	GIRK channel response, agonist	AtT20 expressing CB1	–	baseline: WIN 55212-2 10 µM	51.3 ± 3.3%
CNC(=O)C(C)(C)NC(=O)c1nn(Cc2ccc(F)cc2)c2ccccc12	CNR1	calcium mobilization, agonist	CHO-K1 expressing Gαq16	–	baseline: CP55,940 maximum	111 ± 2%
NCCc1ccc(Oc2ccc(O)cc2)c(I)c1	Trace amine-associated receptor 1 (Rattus norvegicus, UniProt Q923Y9, F153Y)	cAMP accumulation, agonist, cell-based	–	TM4 mutant	baseline: 1	100%

Excerpt of the above:
Structure (SMILES)	target	test	test system	setting	scale	Emax
CN1C(=O)CC(=O)N(c2ccccc2)c2cc(Cl)ccc21	Gabrg2/Gabra3 with β3 subunit	positive allosteric modulator, whole-cell patch clamp	HEK293	α3β3γ2 subunits, with: GABA at EC10	–	317 ± 30%
